Measurements pooled from the literature.
Each line is one published result; not all experiments were run side by side.
Target: Serine/threonine-protein kinase Nek10 (NEK10, Homo sapiens, UniProt Q6ZWH5)

CNC1C[S+]2CC[S+]3CC[S+](C1)[Ru-4]321([N]=C=S)[n]2c3ccc(OC)cc3c3c4c(c5cc(F)c[n+]1c5c32)C(=O)NC4=O (centres unmarked)  remaining binding (KinomeScan; 0.1 µM; baseline: untreated): 100%
Cc1cnc2nc1Nc1cccc(c1)COC/C=C/COCc1cc(ccc1OCCN1CCOCC1)N2  remaining binding (binding; 0.1 µM): 80%
Nc1ncc2c(n1)-c1c([nH]c3ccc(C4=CCOCC4)cc13)CCC2  remaining binding (binding, competition with immobilised ligand; 1 µM): 100%
CNC(=O)C1CCN(c2cc(C)c(F)cc2NC(=O)c2ccc(-c3cc(O)ccc3C)c(C)c2)CC1  remaining binding (binding, competition with immobilised ligand; 1 µM): 66%
COc1cc(Nc2nccc(-c3cnn4nc(OC)ccc34)n2)cc(C(F)(F)F)c1  remaining binding (binding, competition with immobilised ligand; 1 µM): 100%
CCn1cc(C(=O)O)c(=O)c2c(N)c(F)c(NC3CCCCC3)cc21  inhibition (kinase activity; 0.1 µM, added: ATP at Km): 4.8%
C=CC(=O)N1CCCC(n2c(=O)c3ncccc3n(Cc3ccc(Oc4ccccc4)cc3)c2=O)C1 (centres unmarked)  remaining binding (cell-free assay, competition with immobilised ligand; 1 µM): 76%
COc1cc(Nc2nc(C)cc(-c3cnn4nc(OC)ccc34)n2)cc(C(F)(F)F)c1  remaining activity (inhibitor; 1 µM; baseline: control): 100%
C=CC(=O)N1CCc2ccc(-n3c(=O)ccc4cnc5ccc(-c6cnn(C)c6)cc5c43)cc21  remaining binding (KINOMEscan; 1 µM; baseline: DMSO control): 84%
COc1c(Cl)cccc1Nc1c(-c2ccncc2C#C[C@@]2(C)CCCN2C(=O)/C=C/CN(C)C)[nH]c2c1C(=O)NCC2  remaining binding (binding, competition with immobilised ligand; 3 µM): 82%
CC(C)=CC1OC(C)(C)C2C=C3C(=O)C(Cl)=CC(O)C3C3C(O)C4OC4C(=O)C132 (centres unmarked)  remaining binding (cell-free assay, competition with immobilised ligand; 10 µM): 79%

Some of these lines once more:
Cc1cnc2nc1Nc1cccc(c1)COC/C=C/COCc1cc(ccc1OCCN1CCOCC1)N2  remaining binding (binding; 0.1 µM): 80%
COc1c(Cl)cccc1Nc1c(-c2ccncc2C#C[C@@]2(C)CCCN2C(=O)/C=C/CN(C)C)[nH]c2c1C(=O)NCC2  remaining binding (binding, competition with immobilised ligand; 3 µM): 82%
